# Values quoted from earlier work, collected from citations in different studies.
# Lines come from different studies, so protocols differ. ± marks the error that the study gave.
SMILES,test,test system,setting,measurement,result
CCCCCc1cc(O)c2c(c1)OC(C)(C)C1CCC(C(=O)OC3OC(C(=O)O)C(O)C(O)C3O)=CC21 (stereo not drawn),,"human, plasma",inhalation,Tmax,~2 h
CCCCCCCC(=O)OC[C@H](NC(=O)[C@H](CO)NC(=O)CN)C(=O)N[C@@H](Cc1ccccc1)C(=O)N[C@@H](CC(C)C)C(=O)N[C@@H](CO)C(=O)N1CCC[C@H]1C(=O)N[C@@H](CCC(=O)O)C(=O)N[C@@H](Cc1cnc[nH]1)C(=O)N[C@@H](CCC(N)=O)C(=O)N[C@@H](CCCNC(=N)N)C(=O)N[C@H](C(=O)N[C@@H](CCC(N)=O)C(=O)N[C@@H](CCC(N)=O)C(=O)N[C@@H](CCCNC(=N)N)C(=O)N[C@@H](CCCCN)C(=O)N[C@@H](CCC(=O)O)C(=O)N[C@@H](CO)C(=O)N[C@@H](CCCCN)C(=O)N[C@@H](CCCCN)C(=O)N1CCC[C@H]1C(=O)N1CCC[C@H]1C(=O)N[C@@H](C)C(=O)N[C@@H](CCCCN)C(=O)N[C@@H](CC(C)C)C(=O)N[C@@H](CCC(N)=O)C(=O)N1CCC[C@H]1C(=O)N[C@@H](CCCNC(=N)N)C(=O)O)C(C)C,,,"intravenous bolus, 1 and 5 µg/kg",half-life,0.15 to 0.217 h
CC(C)[C@@H]1CC[C@@H](C)C[C@H]1C(=O)NCCc1ccccn1,,rat,"dietary, 90 days",NOAEL,5 mg/kg/day
CC[C@H](C)C(=O)N1CCC(NC(=O)Nc2ccc(OC(F)(F)F)c(F)c2)CC1,,rat,"oral, 28 d",NOAEL,5 mg/kg/day
F[P-](F)(F)(F)(F)F.OCP(CO)CO.OCP(CO)CO.OCP(CO)CO.OCP(CO)CO.[Cu+],,water,,stability,stable
CSCC[C@H](NC(=O)CNC(=O)CNC(=O)[C@H](CO)NC(=O)[C@H](CC(C)C)NC(=O)[C@@H]1CCCN1C(=O)[C@H](CO)NC(=O)[C@H](CC(N)=O)NC(=O)[C@H](CC(C)C)NC(=O)[C@H](C)NC(=O)[C@@H](NC(=O)[C@H](CC(C)C)NC(=O)[C@H](Cc1c[nH]cn1)NC(=O)[C@H](CC(C)C)NC(=O)[C@@H](NC(=O)[C@@H]1CCCN1C(=O)[C@H](CCC(N)=O)NC(=O)[C@H](Cc1ccccc1)NC(=O)[C@H](CC(=O)O)NC(=O)[C@H](CCCNC(=N)N)NC(=O)[C@H](Cc1c[nH]cn1)NC(=O)[C@H](CO)NC(=O)[C@H](Cc1c[nH]cn1)NC(=O)[C@H](CCSC)NC(=O)[C@H](CC(=O)O)NC(=O)CNC(=O)[C@H](CCCNC(=N)N)NC(=O)[C@H](CC(=O)O)NC(=O)CNC(=O)[C@@H](N)CCCNC(=N)N)C(C)C)C(C)C)C(N)=O,,cynomolgus monkey,15 mg/kg,elimination half-life,7.8 min
O=C(O)CCC(NP(=O)(O)OCCC[C@@H](NC(=O)CCC(NC(=O)CCCCCNC(=O)c1ccc([18F])cc1)C(=O)O)C(=O)O)C(=O)O (stereo partly drawn),,"mouse, CWR22Rv1 xenograft, tumour",4 h,tumour retention,2.35 %ID/g
COc1cc2c3cc1Oc1c(OC)c(OC)cc4c1[C@@H](Cc1ccc(O)c(c1)Oc1ccc(cc1)C[C@@H]3N(C)CC2)N(C)CC4,,mouse,,LD50,1700 ± 200 mg/kg
COC[C@@H](NC(C)=O)C(=O)NCc1ccc(-c2cccc(F)c2)cc1,,rat,"oral, maximal electroshock seizure test",protective index,> 210
COc1ccc(C2=[N+]([O-])c3ccccc3N3CCCN=C23)cc1,,octanol/PBS,,logP,-0.128
CN(C)C(=N)N=C(N)N,,human,dose not given,oral absorption,50%
"CN1c2ccc(OC(=O)Nc3ccccc3)cc2[C@@]2(C)CCNC12 (single isomer, unassigned; (+))",,"human, plasma",40 mg Posiphen,Cmax,25.6 ng/mL
COc1cccc(-c2cccc(OC)n2)n1.[Ru+2].c1cnc2c(c1)c1c(c3cccnc32)OCCO1.c1cnc2c(c1)c1c(c3cccnc32)OCCO1,,octanol/water,pH 7.4,log D,-1.1
CNC1C(O)C(NC)C2OC3(O)C(OC(C)C[C@H]3NC(=O)Cc3cscn3)OC2C1O.Cl.Cl (stereo partly drawn),,mouse liver microsomes,,half-life,5.6 h
C=C(C)C12OC3(c4ccccc4)OC1C1C4OC4(CO)C(O)C4(O)C(=O)C(C)=CC4C1(O3)C(C)C2OC(=O)c1ccccc1 (stereo not drawn),,mouse 22Rv1 and PDX models,"intraperitoneal, 0.5 mg/kg 5 times weekly, early dosing stage",body weight loss,~13%
COC[C@@H](NC(C)=O)C(=O)NCc1ccc(OCc2cccc(F)c2)cc1,behavioural toxicity,rat,oral,TD50,> 500 mg/kg
CN[C@H](CC(C)C)C(=O)N[C@H]1C(=O)N[C@@H](CC(N)=O)C(=O)N[C@H]2C(=O)N[C@H]3C(=O)N[C@H](C(=O)N[C@H](C(=O)NCCCNC(=N)N)c4cc(O)cc(O)c4-c4cc3ccc4O)[C@H](O)c3ccc(c(Cl)c3)Oc3cc2cc(c3O[C@@H]2O[C@H](CO)[C@@H](O)[C@H](O)[C@H]2O[C@H]2C[C@](C)(NCc3ccc(-c4ccc(Cl)cc4)cc3)[C@H](O)[C@H](C)O2)Oc2ccc(cc2Cl)[C@H]1O,,mouse,"intravenous, 10 mg/kg",clearance,1.5 mL/min/kg
COc1ccc(CCN2CCN(C/C=C/[125I])CC2)cc1OC,,,pH 7.4,logD,2.25 ± 0.01
C=C(C)[C@@H]1CCC(CO)=C[C@H]1c1c(O)cc(CCCCC)cc1O,,healthy volunteers,"dose not given, steady state, together with: valproate",increase in AUC(0-tau),22%
NC(=O)N[C@H]1CC[C@H](CCN2CCN(c3cccc(Cl)c3Cl)CC2)CC1,,human schizophrenia patients,after cariprazine discontinuation,half-life,1 to 3 weeks
C=C(C)[C@@H]1CCC(C(=O)O)=C[C@H]1c1c(O)cc(CCCCC)cc1O,,healthy volunteers,"dose not given, steady state, together with: stiripentol",decrease in AUC(0-tau),13%
CN[C@H](CC(C)C)C(=O)N[C@H]1C(=O)N[C@@H](CC(N)=O)C(=O)N[C@H]2C(=O)N[C@H]3C(=O)N[C@H](C(=O)N[C@H](C(=O)O)c4cc(O)cc(O)c4-c4cc3ccc4O)[C@H](O)c3ccc(c(Cl)c3)Oc3cc2cc(c3O[C@@H]2O[C@H](CO)[C@@H](O)[C@H](O)[C@H]2O[C@H]2C[C@](C)(NCc3ccc(-c4ccc(Cl)cc4)cc3)[C@H](O)[C@H](C)O2)Oc2ccc(cc2Cl)[C@H]1O,,"mouse, plasma","intravenous, 75 mg/kg (MTD)",volume of distribution,1.24 L/kg
CNC1C(O)C(NC)C2OC3(O)C(OC(C)C[C@H]3NC(=O)Cc3cc(Cl)ccn3)OC2C1O.Cl.Cl (stereo partly drawn),,mouse liver microsomes,,half-life,1.5 h
CCN1CCCC1CNC(=O)c1cc(Br)cc(OC)c1O[11CH3] (stereo not drawn),HPLC,,,log kw,1.89
CC[C@@H]1CN2CCc3c([nH]c4cccc(OC)c34)[C@@H]2C[C@@H]1/C(=C\OC)C(=O)OC,,rat,oral,oral bioavailability,20 to 30%
OC1C=Cc2c(cc3ccc4cccc5c6ccccc6c2c3c45)C1O (stereo not drawn),,mouse liver microsomes,phase II glucuronidation (UGT),Km,29.7 µM
O=C(N[C@@H](Cc1coc2ccccc12)B(O)O)[C@@H]1C[C@H]2CC[C@@H]1O2,,dog,"oral, 10 mg/kg once daily, repeated dosing",tolerability,not toxic

# Excerpt of the above:
SMILES,test,test system,setting,measurement,result
"CN1c2ccc(OC(=O)Nc3ccccc3)cc2[C@@]2(C)CCNC12 (single isomer, unassigned; (+))",,"human, plasma",40 mg Posiphen,Cmax,25.6 ng/mL
CNC1C(O)C(NC)C2OC3(O)C(OC(C)C[C@H]3NC(=O)Cc3cscn3)OC2C1O.Cl.Cl (stereo partly drawn),,mouse liver microsomes,,half-life,5.6 h
COC[C@@H](NC(C)=O)C(=O)NCc1ccc(OCc2cccc(F)c2)cc1,behavioural toxicity,rat,oral,TD50,> 500 mg/kg
